Assay results of several laboratories.
Lines come from different studies, so protocols differ. “And” joins repeats or separate records; there may be more than shown. pIC50: −log10 of the molar value.
Cell line: SF-295

O=C1NCCc2[nH]c(-c3ccncc3)cc21 — pIC50 (MTS; NCI60 panel): 5.12
Cn1cncc1C1=CN(c2ncnc3[nH]cnc23)CCS1 — TGI (CNS cancer): > 200 µM
Cc1cc(-c2ccccc2)n(-c2nc(-c3ccc(Cl)cc3)c3c(NC(=O)c4ccccc4)nnc-3[nH]2)n1 — cell growth (SRB; 10 µM, NCI60 single-dose screen; baseline: untreated): 91%
CCCN1CCN(c2ccc3[nH]c(-c4ccc5[nH]c(-c6ccc(C(F)(F)F)cc6)nc5c4)nc3c2)CC1 — growth percent (SRB; 10 µM, 48 h): -58.4%
S=C([S][Au-][P+](CCCCCC[P+]([Au-][S]C(=S)n1cccn1)(c1ccccc1)c1ccccc1)(c1ccccc1)c1ccccc1)n1cccn1 — log10 TGI (cell growth, NCI-60 screen; CNS cancer): > -4
CCCN1CCN(c2ccc3[nH]c(-c4ccc5[nH]c(-c6cc(OC)c(OC)c(OC)c6)nc5c4)nc3c2)CC1 — growth percent (SRB; 10 µM, 48 h): 65.9%
C#C[C@@]1(O)[C@@H](CO)O[C@@H](n2cc(I)c3c(N)ncnc32)[C@@H]1O — TGI (SRB; NCI-60 screen): 3.77 µM
COc1ccc(OC)c(-c2nc3ccc(-c4nc5ccc(N6CCN(C)CC6)cc5[nH]4)cc3[nH]2)c1 — growth percent (SRB; 10 µM, 48 h): 111%
CSc1nc(-c2ccc(Cl)cc2)c2c(NC(=O)c3ccccc3)nnc-2[nH]1 — cell growth (SRB; 10 µM, NCI60 single-dose screen; baseline: untreated): 96.2%
C#C[C@@]1(O)[C@@H](CO)O[C@@H](n2cc(Cl)c3c(N)ncnc32)[C@@H]1O — TGI (SRB; NCI-60 screen): 1.9 µM and 3.2 µM
O=C(Nc1nnc2n3c(Cc4ccccc4)n[nH]c3nc(-c3ccc(Cl)cc3)c1-2)c1ccccc1 — cell growth (SRB; 10 µM, NCI60 single-dose screen; baseline: untreated): 102%
CCN(CC)c1ccc(C=NNC(=O)CSc2nc3ccccc3c(=O)n2Cc2ccc(S(N)(=O)=O)cc2)c(O)c1 — TGI (NCI five-dose screen): > 100 µM
Cc1cc(C)n(-c2nc(-c3ccc(Cl)cc3)c3c(NC(=O)c4ccccc4)nnc-3[nH]2)n1 — cell growth (SRB; 10 µM, NCI60 single-dose screen; baseline: untreated): 77.2%
CCCN1CCN(c2ccc3[nH]c(-c4ccc5[nH]c(-c6ccc(OCC)c(OCC)c6)nc5c4)nc3c2)CC1 — growth percent (SRB; 10 µM, 48 h): -63.2%
